Literature values, collected from citations in different studies.
Lines come from different studies, so protocols differ. Values after ≈ are worked out from the molar mass of the structure shown.

For COc1ccccc1Oc1cccc(CN2CCC(O)(c3ccccc3C(=O)O)CC2)c1, the EC50 was 126 nM (human CCR8 F46A mutant (TM1); IP accumulation, agonist).
Cc1[nH]c(C)c(-c2ccc(Nc3ccc(C(F)(F)F)cn3)cc2)c(=O)c1Br gave an IC50 of 30 nM (Plasmodium falciparum; whole cell extended time; 3D7; 72 h).
The EC50 of COc1ccccc1Oc1cccc(CN2CCC(NC(=O)C(CCN3CCCC3)c3ccccc3)CC2)c1 (stereo not shown) is reported as 7.1 nM (human CCR8 F112A mutant (TM3); IP accumulation, agonist).
Cc1cc(=O)c(-c2ccc(Oc3cccc(C(F)(F)F)c3)cc2)c(C)[nH]1 has an IC50 of 630 nM (Plasmodium falciparum; whole cell extended time; 3D7; 72 h).
Nc1cc(C(F)(F)F)c(-c2nc(N3CCOCC3)nc(N3CCOCC3)n2)cn1 gave a GI50 of 2080 nM (786-O).
The EC50 of CCNS(=O)(=O)c1ccc(OC)cc1C1(O)CCN(Cc2cccc(Oc3ccccc3OC)c2)CC1 is reported as 50 nM (human CCR8 F46A mutant (TM1); IP accumulation, agonist).
The IC50 of Cc1[nH]c(C)c(-c2ccc(OCc3ccc(F)cc3)cc2)c(=O)c1Br is reported as 80 nM (Plasmodium falciparum; whole cell extended time; 3D7; 72 h).
The MIC of CC1(C)S[C@@H]2[C@H](NC(=O)[C@H](N)c3ccccc3)C(=O)N2[C@H]1C(=O)O is reported as over 16 µg/mL (Acinetobacter baumannii; clinical isolate RKI-No_32/16).
COc1ccccc1Oc1cccc(CN2CCC(NC(=O)C3CC(=O)Nc4ccccc43)CC2)c1 (stereo not shown) gave an EC50 of 36 nM (human CCR8 S289A mutant (TM7); IP accumulation, agonist).
For CN1CCCC(CN2CCN(Cc3ccc(-c4cccc(-c5nc6ccccc6[nH]5)c4)cc3)CC2)C1 (stereo not shown), the IC50 was 130 nM (Plasmodium falciparum; whole cell extended time; 3D7; 72 h).
With C[C@H]1COCCN1c1nc(-c2cnc(N)cc2C(F)F)nc(N2CCOCC2)n1 the GI50 was 2120 nM (SHP77).
With CNC(C)C1CCC(N)C(OC2C(N)CC(N)C(OC3OCC(C)(O)C(NC)C3O)C2O)O1 (stereo not shown) the MIC was 1 µg/mL (≈ 2.09 µM) (Enterobacter cloacae; clinical isolate RKI 1026/14-1).
The IC50 of Cc1c(C#N)cccc1[C@@H](C)Nc1nnc(C)c2cnc(N3CCOCC3)cc12 is reported as over 1000 nM (MKN-1; 3D cell viability; 7 d).

Excerpt of the above:
For COc1ccccc1Oc1cccc(CN2CCC(O)(c3ccccc3C(=O)O)CC2)c1, the EC50 was 126 nM (human CCR8 F46A mutant (TM1); IP accumulation, agonist).
The MIC of CC1(C)S[C@@H]2[C@H](NC(=O)[C@H](N)c3ccccc3)C(=O)N2[C@H]1C(=O)O is reported as over 16 µg/mL (Acinetobacter baumannii; clinical isolate RKI-No_32/16).
